Measured values pooled from the literature.
Numbered parts are unrelated; each lists some results of a single study.

Block 1
Target: UBE2S UBC core domain (UniProt Q16763)
Technique: yeast two-hybrid
Medium: yeast
Notes: mostly zero background
Baseline: not given
Reading: higher = stronger interaction
B1: RFPL3 RING domain (UniProt O75679); chain MAALFQEASSCPVCSDYLEKPMSLECGCTVCLKCINSLQKEPHGEDLLCCCCSMVSQRNKIRP
B2: MDM2 RING domain (UniProt Q00987); chain TQDKEESVESSLPLNAIEPCVICQGRPKNGCIVHGKTGHLMACFTCAKKLKKRNKPCPVCRQPIQMIVLTYFP
B3: MARCHF2 RING domain (UniProt Q9P0N8); chain RLLSTVIRALDTPSDGPFCRICHEGANGECLLSPCGCTGTLGAVHKSCLEKWLSSSNTSYCELCHTEFAVEKRPRPLTEWL
B4: TRIM32 RING domain (UniProt Q13049); chain NLDALREVLECPICMESFTEEQLRPKLLHCGHTICRQCLEKLLASSINGVRCPFCSKITRITSLTQ
B5: TRIM34 RING domain (UniProt Q9BYJ4); chain ILLNVQEEVTCPICLELLTEPLSLDCGHSLCRACITVSNKEAVTSMGGKSSCPVCGISYSFEHLQA
B6: NHLRC1 RING domain (UniProt Q6VVB1); chain MREAEISLLECKVCFEKFGHRQQRRPRNLSCGHVVCLACVAALAHPRTLALECPFCRRACRGCDTSD
B7: TRIM68 RING domain (UniProt Q6AZZ1); chain LVEAIVEEVACPICMTFLREPMSIDCGHSFCHSCLSGLWEIPGESQNWGYTCPLCRAPVQPRNLRP
B8: UBE4B RING domain (UniProt O95155); chain KNARAEIDYSDAPDEFRDPLMDTLMTDPVRLPSGTIMDRSIILRHLLNSPTDPFNRQTLTESMLEPVPELKEQIQAWMREKQNSDH
B9: RNF115 RING domain (UniProt Q9Y4L5); chain TQEQVDMGLECPVCKEDYTVEEEVRQLPCNHFFHSSCIVPWLELHDTCPVCRKSLNGEDSTR
B10: RNF130 RING domain (UniProt Q86XS8); chain DKETDPDFDHCAVCIESYKQNDVVRILPCKHVFHKSCVDPWLSEHCTCPMCKLNILKALGIV
B11: RNF10 RING domain (UniProt Q8N5U6); chain VRICSHEVPSCPICLYPPTAAKITRCGHIFCWACILHYLSLSEKTWSKCPICYSSVHKKDLKS
Target sequence (chain): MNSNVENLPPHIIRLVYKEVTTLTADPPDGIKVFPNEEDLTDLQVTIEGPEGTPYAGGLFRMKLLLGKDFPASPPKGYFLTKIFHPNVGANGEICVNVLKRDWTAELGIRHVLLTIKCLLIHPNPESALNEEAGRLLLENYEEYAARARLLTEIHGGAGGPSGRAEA
Sequence | lacZ reporter activity
B1 (RFPL3 RING domain) | 0
SNNDLASLFECPVCFDYVLPPILQCQSGHLVCSNCRPKLTCCPTCRGPLGSIRNLA (SIAH1 RING domain (UniProt Q8IUQ4)) | 0
B2 (MDM2 RING domain) | 0
B3 (MARCHF2 RING domain) | 0
B4 (TRIM32 RING domain) | 0
KITELNPHLMCALCGGYFIDATTIVECLHSFCKTCIVRYLETNKYCPMCDVQVHKTRPLL (PCGF2 RING domain (UniProt P35227)) | 0
B5 (TRIM34 RING domain) | 0
B6 (NHLRC1 RING domain) | 0
B7 (TRIM68 RING domain) | 0
B8 (UBE4B RING domain) | 0
B9 (RNF115 RING domain) | 0
B10 (RNF130 RING domain) | 0
B11 (RNF10 RING domain) | 0
FLSKVEETFQCICCQELVFRPITTVCQHNVCKDCLDRSFRAQVFSCPACRYDLGRSYAMQ (UHRF1 RING domain (UniProt Q96T88)) | 0

Block 2
Target: RNA binding protein fox-1 homolog 2, RRM domain, GST-SBP tag (RBFOX2, Homo sapiens, UniProt O43251-10, residues 100-194)
Technique: RNA Bind-n-Seq
Form: RNA
Medium: in vitro
Concentration: 365 nM
Notes: natural RNA segment, single round, ends assumed
Baseline: no-protein control
Reading: higher = stronger binding
Strand | RBNS enrichment (R)
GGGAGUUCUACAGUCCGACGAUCAGCUGUGGCUCAACACAUGAGAAGAAGCACGAAGCAGUUAGGCUGUACAUCAGACAGAAGGGUAAUGCGUGCAGUUCCUGCUGCCUGCAGGCAGACGAGGCCUUUGCUUUUGGAAUUCUCGGGUGCCAA | 0.645
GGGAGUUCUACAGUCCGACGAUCCUAUGCUGCCUAGGCUGACCUUGAACUCCUGGGCUCAAGCAGUCUACCCACCUCAGCCUCCUGUGUAGCUGGGAUUAUAGAUUGGAGCCACCAUGCCCAGCUCAGAGGGUUGGAAUUCUCGGGUGCCAA | 0.364
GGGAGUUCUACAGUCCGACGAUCUCUGUUUUUGUAGACGAAUAACCAUCAACAUGACAACAAAAUUCAUUGGGGUCUACCAGCGUGCAUUCCAUUUCCCACUGACCAUGCAGGUGCACGUCGCGGAAAUACUGUGGAAUUCUCGGGUGCCAA | 1.17
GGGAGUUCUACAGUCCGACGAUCCCCUCCCUUACAGGGUGGUGUAUAGCCAGGGCUAUACAAAAAGGGUGGCUAGUGACCUUUUCUCUCUCUUCUCUCUCUCUUCUCUCUUCUCUCUUCCCUUGAUCUUCCUUUGGAAUUCUCGGGUGCCAA | 0.562
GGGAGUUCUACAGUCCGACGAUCGGAAGGAGCACCCAUGUCCACUGGAACGGGAGAACAAGCCUUCGGCAUCUACAGGGUUACUGUUUGCAUUUUCUACCCACAAGCAGAAGGAGACAGUGACAAUGGGCAGUUGGAAUUCUCGGGUGCCAA | 0.42
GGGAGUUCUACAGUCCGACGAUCUCUUUUAUCCGUCUAUUUAUUUUGUAAGUGUAUUCGUGUGGAGGAGGUUGUUGCUUUAUUUUUUUAAGGCUCUGGAGUGUUGUGUAUGGUUUCUUUUCACAUCCCAGCCUUGGAAUUCUCGGGUGCCAA | 0.399
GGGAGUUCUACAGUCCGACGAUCUGGGACUUGAGAUUUGAGGAAAAAAGAUGCUUAUUUGGAAUUUCUAUUAAGAACUAUCCUUGUUAUUUUCUUAGCUCAAUAAUUACUCAAGAAAAAUAAAAGAUUAUAAUUGGAAUUCUCGGGUGCCAA | 0.585
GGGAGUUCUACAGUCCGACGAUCUGGCCCCGAGGUCCAGGUUGUAGUCAUGGAAAGAGCCCUGCUGUCUCCCUUCUCAGGGGGCCCAUUUUAGACACACAAAGCCCAAAGAAAGGUGGUUUGCAACAGUGCUUUGGAAUUCUCGGGUGCCAA | 0.388
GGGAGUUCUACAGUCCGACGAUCCUGUAAAUGGGGGCUCCAUUAGUUCUGCUGCCGAGACUAAUAAAGAUUUGGUUGGCUCUAGCAGUAACUGUGGCUUGCUUUGUUCCCCCAGAAGGCCCUGUUUCCCUCUCUGGAAUUCUCGGGUGCCAA | 0.637

Block 3
Target: Ras GTPase-activating protein-binding protein 1, RRM domain (G3BP1, Homo sapiens, UniProt Q13283)
UniProt Q13283, sequence (whole entry, looked up): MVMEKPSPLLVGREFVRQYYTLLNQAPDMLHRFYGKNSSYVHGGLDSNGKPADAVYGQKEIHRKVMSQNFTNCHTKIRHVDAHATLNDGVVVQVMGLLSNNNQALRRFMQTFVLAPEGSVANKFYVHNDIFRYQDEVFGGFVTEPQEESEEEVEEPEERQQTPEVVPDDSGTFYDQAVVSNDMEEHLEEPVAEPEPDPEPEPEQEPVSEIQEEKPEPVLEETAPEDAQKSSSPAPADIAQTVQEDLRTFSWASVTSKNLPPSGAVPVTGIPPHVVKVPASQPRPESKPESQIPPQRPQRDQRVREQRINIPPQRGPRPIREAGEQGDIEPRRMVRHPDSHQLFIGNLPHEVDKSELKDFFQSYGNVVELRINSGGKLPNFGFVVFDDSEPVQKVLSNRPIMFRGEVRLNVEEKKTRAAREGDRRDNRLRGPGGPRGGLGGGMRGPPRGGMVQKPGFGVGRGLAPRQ
Technique: RNA Bind-n-Seq
Form: RNA
Medium: in vitro
Concentration: 1 µM
Notes: whole 134-nt RNA, ends assumed
Added: 150 mM KCl
Baseline: input library
Reading: higher = stronger binding
Strand | log2 enrichment
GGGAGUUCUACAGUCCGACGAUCACCAUGCAGGUGGGCAUCUUUGGGAAGUGAGGCAAGGGGGGGAUAGGGAGGGGGGUAACACUUUGGGAACAGGUGGUCCCAGGUCGUUUCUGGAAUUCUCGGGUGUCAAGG | -0.344
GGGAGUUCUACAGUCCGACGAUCUCAAGUCCUGUGCUACACAUCGUAUGUACCGAAUCGGGUGGGUGGGUUUUUGGGAAAGUAUUAUGUUACGCCGUUCGGAUCUGCACUUCCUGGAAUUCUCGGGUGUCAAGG | 0.699
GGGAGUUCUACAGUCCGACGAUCACCAUGCAGGUGGGCAUCUUUGGGAAGUGGGGCCAGGGGGGGAUAGGGAGGGGGGUAACACUUUGGGAACAGGUGGUCCCAGGUCGUUUCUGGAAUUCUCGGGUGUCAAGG | -0.408
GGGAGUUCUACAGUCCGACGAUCUCAAGUCCUGUGCUACACAUCGUAUGUACCGAAUCGGGGAAGGGAAGGGAAGGGGAAAGUAUUAUGUUACGCCGUUCGGAUCUGCACUUCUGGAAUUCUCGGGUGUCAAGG | 0.915
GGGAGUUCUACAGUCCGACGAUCUAACUUUAGAGGAGGAUCUGAUGGAUAUGGCAGUGGACGUGGAUUUGAGGAUGGCUAUAAUGGGUAUGGAGGAGGACCUGGAGGUGGCAAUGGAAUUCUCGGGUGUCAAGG | -0.497
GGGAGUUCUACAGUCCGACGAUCUCCUGUGCUACACAUCGUAUGUACCGAAUCGGUUUUUUGGGGUUUUUUGGGUUUUUUGGAAAGUAUUAUGUUACGCCGUUCGGAUCUGCAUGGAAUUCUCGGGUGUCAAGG | -0.0746
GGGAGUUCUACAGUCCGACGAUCCUCAAGUCCUGUGCUACACAUCGUAUGUACCGAAUCGGUUUUUGGAAAGGAGGAAAGUAUUAUGUUACGCCGUUCGGAUCUGCACUUCCAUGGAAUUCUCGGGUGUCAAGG | -0.306
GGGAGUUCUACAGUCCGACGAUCAAGUCCUGUGCUACACAUCGUAUGUACCGAAUCGGGAAAAAGGGUUUGGGAAAGGGAAAGUAUUAUGUUACGCCGUUCGGAUCUGCACUUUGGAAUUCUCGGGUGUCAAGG | 0.484
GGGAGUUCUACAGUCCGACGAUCGCAGGAAGUAAAAACAAAUGGAAAUGCUUCGGAUAGUGGCAGGGGUGGGGGAUGCUAAGGAAAGGGUGGGAUGGGAGUGGGUAAAGAGUUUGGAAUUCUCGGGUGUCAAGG | 0.773

Block 4
Target: RING finger protein unkempt homolog, zinc fingers 1-6, GST-SBP tag (UNK, Homo sapiens, UniProt Q9C0B0, residues 30-357)
UniProt Q9C0B0, sequence (30-357, looked up): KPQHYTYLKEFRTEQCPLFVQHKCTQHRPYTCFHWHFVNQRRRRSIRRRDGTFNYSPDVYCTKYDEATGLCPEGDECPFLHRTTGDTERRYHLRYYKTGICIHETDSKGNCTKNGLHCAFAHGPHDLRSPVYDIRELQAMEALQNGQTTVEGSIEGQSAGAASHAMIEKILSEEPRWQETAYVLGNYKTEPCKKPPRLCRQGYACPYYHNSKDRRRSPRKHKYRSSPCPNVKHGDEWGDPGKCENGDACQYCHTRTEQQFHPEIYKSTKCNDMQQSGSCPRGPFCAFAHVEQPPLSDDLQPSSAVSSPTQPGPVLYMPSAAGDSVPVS
Technique: RNA Bind-n-Seq
Form: RNA
Medium: in vitro
Concentration: not given
Notes: RNA with constant flanks, ends assumed
Baseline: input RNA pool
Reading: higher = stronger binding
Strand | bound/input enrichment [ratio]
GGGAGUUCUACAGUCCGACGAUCUGUGUCCCUGCCAUGAUCAGGUGUCUAUCAGAUGACGUAAAAACCAAGUUGCGUUCCGGUUCCGCCAUAAGCUCCUUGGGCCAGUGUGUUGAAGAACUUACCCUUAACAGUAUUGAUGCUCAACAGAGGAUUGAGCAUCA | 0.433
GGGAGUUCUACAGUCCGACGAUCAGAAACGGUGAACUCCCCAGCUAUUUAUAAAUUUCAGAGUCGUCGAAAACGUUGACGUGUUACCGAUAAGCCUUGUCAUUCUGUAUCAAAAAUCUGUUGUCGUUUUCUAGUAACUUCAAACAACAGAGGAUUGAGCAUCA | 0.782
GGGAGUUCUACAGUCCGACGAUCCAGUCUUUAAGUAUGCCAGCAUCUCUUGGAAGGAUGAACCAGGGUACUGCACGCCUUGCCCGUUUAAUGAAUCUUGGAAUGAGUUCUUCAUUGAAUCAACAAGGAGCUCAUAGUGCACUGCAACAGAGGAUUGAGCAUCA | 0.111
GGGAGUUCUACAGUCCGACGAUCCCUGACAGCUGGGUGUGUGACUUAGGUAGGUGAGCCUGUGAAACAGUAUGAAGAGAAGAAAACCGCCUUUUAAAGAGACUGGCCCACAGAAAGGAUGGCCUUCUUGGACAAUCCAACUAUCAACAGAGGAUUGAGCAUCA | 0.34
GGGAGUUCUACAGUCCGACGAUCGAGUUCCAUCUUUUCUCUAGGAAGGUAGAAGAGAUUUUGAAGGAGAAGAAUGUUUCAUAUGUCCGUGCAAUUUCCACACCUAUCUUUUCAGCACAAGAGAAGAUGAAUCGCCUUUCUGAGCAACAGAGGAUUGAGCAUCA | 0.134
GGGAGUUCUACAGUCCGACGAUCAAAAAUGGAGACAAACAAGAUCUUUGAUGUGUUUCAUGUUUGUGGGCAGGUGAACAAUAUUUCCGAGUAUUUUAAAAAAUCAUUUCUUACAGAGAAAUUAAUUUGCAGUUGAAUGAAAGCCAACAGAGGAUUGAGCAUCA | 0.331
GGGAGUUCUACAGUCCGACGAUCACAUCAGCGAACUCAUGCAGGGGAAAAGCCUUAUGGGUGCAGUGAAUGUGGGAAAGCUUUCCGCAGCAAGUCAUACCUAAUUAUACACAUGAGAACUCAUUCAGGUGAAAAACCAUAUGACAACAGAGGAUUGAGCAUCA | 0.146
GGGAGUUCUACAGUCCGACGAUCGCCUUGGCUCCACCCAGUGUGCUUAGUACCAACGUAGGCAGUGUGUACAACACGAAGAAAGCCGGCAAGAGGCUCAACAUCCAGCUUAAGAAAGGUACAGAAGGACUGGGAUUCAGCAUCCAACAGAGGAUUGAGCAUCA | 0.131

For quick reference, copied from above (block 1):
Sequence | lacZ reporter activity
B2 (MDM2 RING domain) | 0
B3 (MARCHF2 RING domain) | 0
B4 (TRIM32 RING domain) | 0
